Results gathered from unrelated publications.
Parts stem from different laboratories: compare values within a part only.

Block 1 — method: RNA Bind-n-Seq; form: RNA; matrix: in vitro; concentration: 200 nM; setting: whole 134-nt RNA, ends assumed; together with: 150 mM LiCl; reference: input library; direction: higher = stronger binding; library: 7-deaza-guanosine replaces G
Target: Fragile X messenger ribonucleoprotein 1, C-terminal low-complexity region (Fmr1, Mus musculus, UniProt P35922)
With `GGGAGUUCUACAGUCCGACGAUCCACAGACAACACGCACCCACACAGACACAGAGGGAAGGGGUUGGGAUGGGGACAGGGUGCACAUCAGGGCGGGGUAGGACCCCAGCCCCUUGGAAUUCUCGGGUGUCAAGG` the log2 enrichment was 0.222.
`GGGAGUUCUACAGUCCGACGAUCCCUCAAGUCCUGUGCUACACAUCGUAUGUACCGAAUCGGCCGGGCCGGCCGGAAAGUAUUAUGUUACGCCGUUCGGAUCUGCACUUCCAGUGGAAUUCUCGGGUGUCAAGG` has a log2 enrichment of -0.326.
With `GGGAGUUCUACAGUCCGACGAUCUCCUGUGCUACACAUCGUAUGUACCGAAUCGGGCCCCCCGGGCCCCCCGGGCCCCCCGGAAAGUAUUAUGUUACGCCGUUCGGAUCUGCAUGGAAUUCUCGGGUGUCAAGG` the log2 enrichment was 0.185.

Block 2 — method: competition protein-binding microarray; form: double-stranded DNA, one strand shown; matrix: in vitro; concentration: 2 µM; together with: Cbf1 competitor, 0.05 µM; direction: higher = stronger binding
Target: Phosphate system positive regulatory protein PHO4, full length, GST-tagged (PHO4, Saccharomyces cerevisiae, UniProt P07270, residues 1-312)
Setting: whole 60-bp probe, lowest competitor level
Target sequence (chain): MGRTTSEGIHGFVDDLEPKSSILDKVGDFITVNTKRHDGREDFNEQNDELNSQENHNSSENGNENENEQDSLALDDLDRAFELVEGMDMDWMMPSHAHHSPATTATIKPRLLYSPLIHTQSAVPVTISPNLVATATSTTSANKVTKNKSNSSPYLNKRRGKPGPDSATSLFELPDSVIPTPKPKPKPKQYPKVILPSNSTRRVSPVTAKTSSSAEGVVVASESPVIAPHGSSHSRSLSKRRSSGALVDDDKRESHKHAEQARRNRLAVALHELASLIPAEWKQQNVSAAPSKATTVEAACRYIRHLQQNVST
For `CATACCCAACCTTGGGGAGTGGGTGAAGATATTTGTGTCTTGATTCGCTTGACGCTGCTG`, the fluorescence intensity was 4840 a.u.
`CATACCCAACCTTTTCACGTGCAATAAGATATTTGTGTCTTGATTCGCTTGACGCTGCTG` has a fluorescence intensity of 16200 a.u.
`CTTCTGTAAATTTGATGTGTGGGTGGACGCGCCCCGGTCTTGATTCGCTTGACGCTGCTG` has a fluorescence intensity of 5840 a.u.
With `TCAGAATGCAAGAAACACGTGAAAAGGTGGAACTTTGTCTTGATTCGCTTGACGCTGCTG` the fluorescence intensity was 14100 a.u.

Block 3 — method: protein binding microarray; form: double-stranded DNA, one strand shown; matrix: in vitro; concentration: not given; reference: not given; direction: higher = stronger binding
Target: Histone acetyltransferase KAT6A, both winged helices, GST fusion (KAT6A, Homo sapiens, UniProt Q92794, residues 1-181)
Setting: 8-mer, flanks averaged, mean of 2 arrays, mostly near background
Residues (chain): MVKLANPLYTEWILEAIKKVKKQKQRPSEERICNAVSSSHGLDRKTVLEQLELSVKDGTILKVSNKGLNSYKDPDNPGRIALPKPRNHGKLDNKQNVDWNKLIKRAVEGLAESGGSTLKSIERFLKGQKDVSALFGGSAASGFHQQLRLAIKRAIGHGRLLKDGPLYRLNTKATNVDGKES
`GTGAAACA` gave an E-score of 0.0536.
`GCGGTTCA` gave an E-score of 0.22.
`ACATGACT` gave an E-score of -0.1.
`AATTCAGA` has an E-score of -0.0757.
`GAGAAGTA` has an E-score of -0.0934.

Other studies, line by line
The fold induction of `PhoQ, residues 284 288 289 292 302 303 TNSAEL` is reported as 17.8 (PhoP, residues 12 14 15 18 19 QQAYL (Escherichia coli, UniProt P23836); Sort-seq, refers to: YFP reporter; E. coli; PhoQ-PhoP variant library, together with: 10 µM Mg2+; reference: high Mg2+ state, higher = stronger signaling).

Some of these lines once more (block 3):
`GTGAAACA` gave an E-score of 0.0536.
